Measured values gathered from unrelated publications.
Compare with care: the assays were run in different laboratories. ± gives the spread as reported.
Organism: Plasmodium falciparum

Structure (SMILES)	assay	test system	conditions	IC50
O=C1Nc2ccc(Cl)cc2C12NCCc1c2[nH]c2ccccc12 (centres unmarked)	parasite growth, [3H]hypoxanthine incorporation	NF54		54 nM
CCCCCCCNCC(O)c1cc(Cl)cc2c1-c1ccc(Cl)cc1C2 (racemic)		3D7	48 h	29.4 ± 6.9 nM
CC(C)Cn1c(=O)n(C)c(=O)c2c(-c3cncn3C)n(Cc3cccc4ccccc34)nc21	parasite growth, inhibitor, SYBR Green I	3D7		3110 nM
CCCCCCCCNC[C@H](O)c1cc(Cl)cc2c1-c1ccc(Cl)cc1C2		3D7	48 h	0.7 ± 0.1 nM
Cc1[nH]c(/C=C2\N=C(c3ccc[nH]3)C=C2OCc2ccccc2)cc1Cc1ccc(OC(F)(F)F)cc1	parasite growth, SYBR Green fluorescence	Dd2 (multidrug-resistant), asexual blood stage	72 h	10.4 nM
CCC1=C(CC)/C(=C/NC23CC4CC(CC(C4)C2)C3)N=C1c1cc2ccccc2[nH]1	parasite growth, SYBR Green fluorescence	Dd2, multidrug-resistant	72 h	59.3 nM
COC1=CC(c2ccc[nH]2)=N/C1=C\c1[nH]c(-c2ccccc2)cc1-c1ccccc1	parasite growth, SYBR Green fluorescence	Dd2 (multidrug-resistant), asexual blood stage	72 h	11.8 nM
COc1cc(CO)c(-c2ccc3c(c2O)[C@@H](C)N[C@H](C)C3)c2cccc(O)c12	asexual parasite proliferation, SYBR Green I fluorescence	Dd2		38 ± 12 nM
N=C(N)NCCCCC(=O)Nc1cc(C(F)(F)F)cc(NC(=O)c2cc(C(=O)Nc3cc(C(F)(F)F)cc(NC(=O)CCCCNC(=N)N)c3O[C@@H]3CCNC3)ncn2)c1O[C@@H]1CCNC1	parasite growth, stage-specific treatment		12 h, early to late trophozoite stage	2060 ± 90 nM
CCN(CC)CCCC(C)Nc1ccnc2cc(Cl)ccc12 (centres unmarked)		D6, sensitive	72 h	0.01 ± 0.0047 µg/mL
O[C@@H](CNCCCC(F)(F)F)c1cc(Cl)cc2c1-c1ccc(Cl)cc1C2		3D7	48 h	4.4 ± 0.2 nM
CC1=C(Cn2cc(COC3COC3)nn2)C(=O)c2ccccc2C1=O	parasite growth, [3H]hypoxanthine incorporation	NF54	72 h	> 10000 nM
CCc1nc(N)nc(N)c1-c1ccc(Cl)cc1	cell growth	erythrocytes, 3D7	low-folate medium	50 ± 10 nM
COC1=CC(c2ccc[nH]2)=N/C1=C\c1[nH]c(C)cc1Cc1ccc(OC(F)(F)F)cc1	parasite growth, SYBR Green fluorescence	Tm90-C2B (atovaquone-resistant), asexual blood stage	72 h	2.88 nM
O[C@H](CN[C@@H](COCC1CC1)Cc1ccccc1)c1cc(Cl)cc2c1-c1ccc(Cl)cc1C2		3D7	48 h	10.4 ± 1.4 nM
O=C1C(O)=C([C@H]2CC[C@H](c3ccc(Cl)cc3)CC2)C(=O)c2ccccc21	growth	3D7	72 h	3 ± 2 nM
CO[C@H]1/C=C/O[C@@]2(C)Oc3c(C)c(O)c4c(O)c(c(/C=N/N5CCN(C)CC5)c(O)c4c3C2=O)NC(=O)/C(C)=C\C=C[C@H](C)[C@H](O)[C@@H](C)[C@@H](O)[C@@H](C)[C@H](OC(C)=O)[C@@H]1C	parasite growth, inhibitor, SYBR Green I	3D7		2410 nM
CC1=C(Cn2cc([Si](C)(C)C)nn2)C(=O)c2ccccc2C1=O	parasite growth, [3H]hypoxanthine incorporation	NF54	72 h	7200 nM
CC1(C)N=C(N)N=C(N)N1c1ccc(Cl)cc1	growth	3D7	96 h	9 ± 2 nM
CC1=C(Cn2cc(CN(Cc3ccccc3)Cc3ccccc3)nn2)C(=O)c2ccccc2C1=O	parasite growth, [3H]hypoxanthine incorporation	NF54	72 h	1910 nM
COC1=CC(c2ccc[nH]2)=N/C1=C\c1[nH]c(-c2ccc(OC)cc2)cc1-c1ccc(OC)cc1	parasite growth, SYBR Green fluorescence	Dd2 (multidrug-resistant), asexual blood stage	72 h	20.6 nM
CC1(C)N=C(N)N=C(N)N1c1ccc(Cl)cc1	parasite growth	erythrocytes, HB3	low-folate medium	107 ± 13.9 nM
CCN(CC)CCCC(C)Nc1ccnc2cc(Cl)ccc12 (centres unmarked)	asexual blood-stage growth, [3H]hypoxanthine uptake	3D7	72 h	10 nM
C[C@H]1[C@@H](O)O[C@@H]2O[C@@]3(C)CC[C@H]4[C@H](C)CC[C@@H]1[C@@]24OO3		3D7, supernatant of treated uninfected erythrocytes	72 h, 500 nM preincubated 0.16 h	6.7 ± 2.5 nM

Structure (SMILES)	assay	test system	conditions	IC50
CC1Cc2c([nH]c3ccccc23)C2(N1)C(=O)Nc1ccc(Cl)cc12 (centres unmarked)	parasite growth, [3H]hypoxanthine incorporation	NF54		17 nM
O[C@H](CN1CCN(C(c2ccccc2)c2ccccc2)CC1)c1cc(Cl)cc2c1-c1ccc(Cl)cc1C2		3D7	48 h	25.6 ± 7.9 nM
Cc1ccc2c(c1C)NC(=O)[C@]21NN=C(c2ccccc2)S1	parasite growth, inhibitor, SYBR Green I	3D7		700 nM
COC1=CC(c2ccc[nH]2)=N/C1=C\c1[nH]c(C(=O)O)cc1Cc1ccc(Cl)cc1	parasite growth, SYBR Green fluorescence	Tm90-C2B (atovaquone-resistant), asexual blood stage	72 h	> 2500 nM
CCCCNCC(O)c1cc(Cl)cc2c1-c1ccc(Cl)cc1C2 (racemic)		3D7	48 h	4.7 ± 0.8 nM
NCCN(C(=O)c1ccc(Cl)cc1Cl)c1ccc(OCc2ccc(Cl)cc2)cc1	parasite growth, inhibitor, SYBR Green I	3D7		1560 nM
OC(c1cc(C(F)(F)F)nc2c(C(F)(F)F)cccc12)C1CCCCN1 (centres unmarked)		3D7	48 h	22.4 ± 15 nM
Cc1[nH]c(/C=C2\N=C(c3ccc[nH]3)C=C2OCc2ccccc2)cc1Cc1ccc(Cl)cc1	parasite growth, SYBR Green fluorescence	Dd2 (multidrug-resistant), asexual blood stage	72 h	10.3 nM
CC1=C(Cc2cn(CC#N)nn2)C(=O)c2ccccc2C1=O	parasite growth, [3H]hypoxanthine incorporation	NF54	72 h	1890 nM
N=C(CC(O)c1ccnc2c1ccc1ccccc12)Nc1ccc(F)cc1 (centres unmarked)	parasite growth, HRP2 ELISA	Dd2 multidrug-resistant, asexual blood stages	3 days	531 ± 95.3 nM
CC1=C(Cn2cc(CNC(=O)OC(C)(C)C)nn2)C(=O)c2ccccc2C1=O	parasite growth, [3H]hypoxanthine incorporation	NF54	72 h	> 10000 nM
O=C(O)c1cc(-c2ccc(Br)cc2)nc2ccc(Cl)cc12	parasite growth, inhibitor, SYBR Green I	3D7		70300 nM
COc1ncnc(NS(=O)(=O)c2ccc(N)cc2)c1OC	cell growth	erythrocytes, 3D7	low-folate medium	426000 ± 85000 nM
CCN(CC)CCCC(C)Nc1ccnc2cc(Cl)ccc12 (centres unmarked)	asexual parasite proliferation, SYBR Green I fluorescence	Dd2		63 ± 14 nM
CCC1=C(CC)/C(=C/c2cc(Cc3ccc(Cl)cc3)c(C)[nH]2)N=C1c1ccc[nH]1	parasite growth, SYBR Green fluorescence	Tm90-C2B (atovaquone-resistant), asexual blood stage	72 h	253 nM
O=C(CC1NCCCC1O)Cn1cnc2cc(Br)c(Cl)cc2c1=O (centres unmarked)	parasite growth	conditional knockdown control line	72 h, with: 3 nM anhydrotetracycline	0.5 nM
NC(N)=Nc1ccc(-c2ccc(-c3ccc(N=C(N)N)c(Cl)c3)o2)cc1Cl	parasite growth, inhibitor, SYBR Green I	3D7		330 nM
CC1=C(Cn2cc(CBr)nn2)C(=O)c2ccccc2C1=O	parasite growth, [3H]hypoxanthine incorporation	NF54	72 h	5550 nM
Nc1ccc(S(=O)(=O)c2ccc(N)cc2)cc1	cell growth	erythrocytes, K1	low-folate medium	51200 ± 2620 nM
COc1cc(C)c(-c2ccc(O)c3c2C[C@@H](C)N[C@@H]3C)c2cccc(O)c12 (single isomer, unassigned)	asexual parasite proliferation, SYBR Green I fluorescence	Dd2		29.7 ± 8.3 nM
COC1=CC(c2ccc[nH]2)=N/C1=C\c1cc(Cc2ccc(OC)cc2)c(-c2ccc(OC)cc2)[nH]1	parasite growth, SYBR Green fluorescence	Tm90-C2B (atovaquone-resistant), asexual blood stage	72 h	113 nM
O[C@@H](c1cc(C(F)(F)F)nc2c(C(F)(F)F)cccc12)[C@H]1CCCCN1	parasite growth, inhibitor, SYBR Green I	3D7		14.6 nM
C[C@@H](O)C(=O)CCCCCCC(=O)Nc1ccccc1	[3H]-hypoxanthine incorporation			37900 nM

A few entries again:
Structure (SMILES)	assay	test system	conditions	IC50
Cc1ccc2c(c1C)NC(=O)[C@]21NN=C(c2ccccc2)S1	parasite growth, inhibitor, SYBR Green I	3D7		700 nM
COC1=CC(c2ccc[nH]2)=N/C1=C\c1[nH]c(C(=O)O)cc1Cc1ccc(Cl)cc1	parasite growth, SYBR Green fluorescence	Tm90-C2B (atovaquone-resistant), asexual blood stage	72 h	> 2500 nM
CCCCNCC(O)c1cc(Cl)cc2c1-c1ccc(Cl)cc1C2 (racemic)		3D7	48 h	4.7 ± 0.8 nM
NCCN(C(=O)c1ccc(Cl)cc1Cl)c1ccc(OCc2ccc(Cl)cc2)cc1	parasite growth, inhibitor, SYBR Green I	3D7		1560 nM
OC(c1cc(C(F)(F)F)nc2c(C(F)(F)F)cccc12)C1CCCCN1 (centres unmarked)		3D7	48 h	22.4 ± 15 nM
